Measurements collected from several papers.
± marks the error that the study gave.
Organism: Trypanosoma brucei rhodesiense

| SMILES | read-out | method | strain | time | IC50 [µM] |
| --- | --- | --- | --- | --- | --- |
| CCOC(=O)C(NC(=O)CN1C(=O)N/C(=C\c2ccc3c(c2)OCO3)C1=O)C(C)C (stereo not shown) | cell viability |  | IL1501 | 72 h | > 66 |
| O=C(Nc1ccc2c(c1)CN(c1ccc(Cl)cc1)C2=O)N1CC[C@H](F)C1 | parasite growth | resazurin | STIB-900 | 3 d | > 64 |
| CCOC(=O)C(C)NC(=O)CN1C(=O)S/C(=C\c2ccc(F)cc2)C1=O (stereo not shown) | cell viability |  | IL1501 | 72 h | > 64 |
| O=[N+]([O-])c1ccc(/C=N/N=C/c2ccc(OCc3ccccc3)cc2)o1 | parasite growth | CellTiter-Glo | IL1501 bloodstream form | 72 h | 0.55 ± 0.1 |
| CCOC(=O)C(CC)NC(=O)CN1C(=O)S/C(=C\c2ccc(OC)cc2)C1=O (stereo not shown) | cell viability |  | IL1501 | 72 h | > 58 |
| O=C(Nc1ccc2c(c1)CN(c1ccccc1)C2=O)N1CC[C@H](F)C1 | parasite growth | resazurin | STIB-900 | 3 d | > 64 |
| CCC(NC(=O)CN1C(=O)N/C(=C\c2ccc(C)cc2)C1=O)C(=O)OC (stereo not shown) | cell viability |  | IL1501 | 72 h | > 64 |
| O=[N+]([O-])c1ccc(/C=N/N=C/c2ccccc2)s1 | parasite growth | CellTiter-Glo | IL1501 bloodstream form | 72 h | 0.35 ± 0.02 |
| O=C(Nc1ccc2c(c1)CN(c1ccccc1)C2=O)N1CC[C@H](O)C1 | parasite growth | resazurin | STIB-900 | 3 d | > 64 |
| COc1ccc(/C=N/N=C/c2ccc([N+](=O)[O-])s2)cc1 | parasite growth | CellTiter-Glo | IL1501 bloodstream form | 72 h | 1.3 ± 0.21 |
| Cc1ccc(N2Cc3cc(NC(=O)N4CCN(c5ccc(F)cc5)CC4)ccc3C2=O)cc1 | cell growth | resazurin | STIB-900 | 3 days | 0.13 |
| O=[N+]([O-])c1ccc(/C=N/N=C/c2ccc(F)cc2)s1 | parasite growth | CellTiter-Glo | IL1501 bloodstream form | 72 h | 0.59 ± 0.07 |
| O=C(Nc1cc2nc(-c3ccc(F)c(F)c3)c(CN3CCN(c4ccc(F)cc4)CC3)n2cn1)N1CC[C@H](F)C1 | parasite growth |  | STIB900 | 3 days | 0.9 |

For quick reference, copied from above:
| SMILES | read-out | method | strain | time | IC50 [µM] |
| --- | --- | --- | --- | --- | --- |
| CCOC(=O)C(NC(=O)CN1C(=O)N/C(=C\c2ccc3c(c2)OCO3)C1=O)C(C)C (stereo not shown) | cell viability |  | IL1501 | 72 h | > 66 |
| O=C(Nc1ccc2c(c1)CN(c1ccc(Cl)cc1)C2=O)N1CC[C@H](F)C1 | parasite growth | resazurin | STIB-900 | 3 d | > 64 |
